Results collected from several papers.
Each line is one published result; not all experiments were run side by side. Values joined by “and” are separate records of one study, mostly repeats; a detail may differ. Numbers after ± are the reported error.

Under “dose eliminated from plasma”, `CC(C(=O)NCC(=O)NCC(CNC(=O)CNC(=O)C(C)N1CCN(CC(=O)[O-])CCN(CC(=O)[O-])CCN(CC(=O)[O-])CC1)(CNC(=O)CNC(=O)C(C)N1CCN(CC(=O)[O-])CCN(CC(=O)[O-])CCN(CC(=O)[O-])CC1)CNC(=O)CNC(=O)C(C)N1CCN(CC(=O)[O-])CCN(CC(=O)[O-])CCN(CC(=O)[O-])CC1)N1CCN(CC(=O)[O-])CCN(CC(=O)[O-])CCN(CC(=O)[O-])CC1.[Gd+3].[Gd+3].[Gd+3].[Gd+3]` (stereo not drawn) is recorded as over 99% (cynomolgus monkey; IV bolus, within 24 h).
For `Cc1cccc(CNC(=O)c2cn(CCNC(=O)c3ccccc3S)c3cc4c(cc3c2=O)OC(F)(F)O4)n1`, the AUC(0-t) was 4810 ± 2220 ng·h/mL (Sprague-Dawley rat, male, whole blood; intramuscular, 10 mg/kg of parent compound).
For `O=C([O-])CN1CCN(CC(=O)[O-])CCN(CC(=O)[O-])CCN(CC(=O)[O-])CC1.[Gd+3]`, dissociation rate read “not detected” (LC-ICP-MS; human plasma; pH 7.4, 37 °C).
For `CCN1CCN(C(=O)c2ccc(-n3nc(-c4cccnc4)c4c3-c3sc(NC(C)=O)nc3CC4)cc2)CC1`, the body weight was 15 g and 19 g and 18.8 g and 18.7 g (NSG mice; dose not given, day 4).
`C=CC(=O)Nc1cc(Nc2nccc(-c3cn(C)c4ccccc34)n2)c(OC)cc1N(C)CCN(C)C`: “apparent clearance (CL/F)” 14.3 L/h (population PK model; human patients).
Under “subjects with adverse event”, `CC(C)c1nc(N(C)S(C)(=O)=O)nc(-c2ccc(F)cc2)c1/C=C/[C@@H](O)C[C@@H](O)CC(=O)O` is recorded as 0% (item: gastrointestinal disorders; healthy men; oral, dose not given, 8 days, treatment-emergent, crossover trial).
`FC(F)(F)c1ccc(CNc2ccc(Cc3c[nH]c4ncc(Cl)cc34)cn2)cn1` — result for “treatment-related adverse events”: 13% (item: Hypophosphatemia; patients with advanced solid tumours, all cohorts; oral, 1000 mg/day, any grade).
`O=C(Nc1nc2cccc(-c3ccc(CN4CCS(=O)(=O)CC4)cc3)n2n1)C1CC1` — result for “treatment-emergent adverse events”: 0% (item: lipase increased; human rheumatoid arthritis patients; oral, 75 mg once daily, 4 weeks, regardless of relatedness).
`CC(C)(C(=O)N1CCOc2c(C#N)cncc2C1)C(F)F`: “subjects with adverse event” 0% (item: upper abdominal pain; human; oral, 20 mg twice daily, 14 days, multiple ascending dose).
`Cc1nc2ccc(OCc3ccc(C(F)(F)F)cc3)cc2[nH]1`: “brain homogenate binding” 96.2% (rapid equilibrium dialysis; mouse brain homogenate; 2 µM, 4 h, 37 °C).
The Tmax of `CCN1CCN(Cc2ccc(NC(=O)c3ccc(C)c(NC(=O)c4cncc(-c5cccs5)c4)c3)cc2C(F)(F)F)CC1` is reported as 1 h (C57BL/6 mice, epithelial lining fluid; intraperitoneal, 30 mg/kg).
`Nc1ccn([C@@H]2O[C@H](CO)[C@@H](O)C2(F)F)c(=O)n1` has a Vz/F of 3.33 ± 0.072 (mg/kg)/(µg/mL) (Sprague-Dawley rat, male, plasma; intraperitoneal, 5 mg/kg).
`COC(=O)N[C@@H](C)CNc1nccc(-c2cn(C(C)C)nc2-c2cc(Cl)cc(NS(C)(=O)=O)c2F)n1` — result for “AUClast geometric mean ratio”: 284% (human, plasma; oral, single dose, added: posaconazole; relative to: compound alone).
`C[C@@H](N)C1CCN(S(=O)(=O)c2cccc3cnccc23)CC1`: “discontinuations due to TEAEs” 0% (healthy volunteers; 250 mg, fasted).
With `O=C(/C=C/c1cccc(S(=O)(=O)Nc2ccccc2)c1)NO` the Vss was 30.1 L/m² (human patients, plasma; 1800 mg/m^2).
`Cl.O=C(c1cc(Cc2n[nH]c(=O)c3ccccc23)ccc1F)N1CC(CNC2CC2)C1` has a tumour concentration of over 100 ng/g (athymic nude mouse sample A PDX, tumour; oral, 12.5 mg/kg, 24 h).
`CO[C@H]1CC[C@H](N2C(=O)CNc3ncc(-c4ccc(C(C)(C)O)nc4)nc32)CC1` gave a renal clearance of 0.383 mL/min (patients, urine; oral, 30 mg, day -1, geometric mean).
For `CCc1cc(C(=O)NC)c2nccc(N3CCc4c(cc(Cn5ccnc5)cc4-c4cn(C)nc4C(F)(F)F)C3=O)c2c1`, “heart weight change” read -0.45% (Sprague Dawley rat; oral, 50 mg/kg once daily, 7 days; relative to: vehicle).

Excerpt of the above:
`Nc1ccn([C@@H]2O[C@H](CO)[C@@H](O)C2(F)F)c(=O)n1` has a Vz/F of 3.33 ± 0.072 (mg/kg)/(µg/mL) (Sprague-Dawley rat, male, plasma; intraperitoneal, 5 mg/kg).
`CO[C@H]1CC[C@H](N2C(=O)CNc3ncc(-c4ccc(C(C)(C)O)nc4)nc32)CC1` gave a renal clearance of 0.383 mL/min (patients, urine; oral, 30 mg, day -1, geometric mean).
